Results from different studies.
A part holds a random share of what one study measured.

Block 1
Target: RING finger protein unkempt homolog, zinc fingers 1-6, GST-SBP tag (UNK, Homo sapiens, UniProt Q9C0B0, residues 30-357)
Method: RNA Bind-n-Seq
Molecule type: RNA
Medium: in vitro
Tested at: not given
Setting: RNA with constant flanks, human and mouse sites, ends assumed
Relative to: input RNA pool
Direction: higher = stronger binding
Residues (chain): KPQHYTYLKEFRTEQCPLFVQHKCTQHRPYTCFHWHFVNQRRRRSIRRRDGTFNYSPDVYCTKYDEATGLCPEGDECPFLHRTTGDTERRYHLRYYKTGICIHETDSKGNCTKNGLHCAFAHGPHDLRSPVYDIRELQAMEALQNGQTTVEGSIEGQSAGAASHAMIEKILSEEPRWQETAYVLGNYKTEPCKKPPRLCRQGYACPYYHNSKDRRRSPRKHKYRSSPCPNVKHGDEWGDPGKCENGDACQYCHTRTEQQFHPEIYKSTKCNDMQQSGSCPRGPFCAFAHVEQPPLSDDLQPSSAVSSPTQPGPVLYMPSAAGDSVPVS
Strand	bound/input enrichment [ratio]
GGGAGUUCUACAGUCCGACGAUCGGCUCUAACUACUUUGUGCGGCUCUACACGGAGCCGCUGCUGGUGAACCUGCCGACACCGGACUUCAGCAUGCCCUACAACGUGAUCUGCCUCACGUGCACUGUGGUGGCCGUGUGCUAUCAACAGAGGAUUGAGCAUCA	0.0451
GGGAGUUCUACAGUCCGACGAUCAGCUCUCCCUGUGCUAACUGCCUGCACCUUGGACAGAGCGGGUGCGCAAAUCAGAAGGAUUAGUUGGGACCUGCCUUGGCGACCCCAUGGCAUCCCCCAGAACCGUAACUAUUGUGGCCCCAACAGAGGAUUGAGCAUCA	0.116
GGGAGUUCUACAGUCCGACGAUCGAGGAGCCAGAGGUGAUCCCUGGACCUCCAUCAGAAAGCCCUGGCAUGCUAACAAAGCUCCAGAUCAAACAGAUGAUGGAAGCAGCAACACGACAAAUCGAGGAACGGAAAAAACAGCUGCAACAGAGGAUUGAGCAUCA	0.124
GGGAGUUCUACAGUCCGACGAUCCGCAGAGCUAAAAGGAGAAAUAUGGAGAGGCUGACUCUUGCUUGUGGUGGGGUAGCCCUGAAUUCUUUUGACGACCUAAGUCCUGACUGCUUGGGACAUGCAGGACUUGUAUAUGAGUAUCAACAGAGGAUUGAGCAUCA	0.47

Block 2
Target: Sal-like protein 4, full length isoform A (SALL4, Homo sapiens, UniProt Q9UJQ4, residues 1-1053)
Chain of UniProt Q9UJQ4 (whole entry, looked up): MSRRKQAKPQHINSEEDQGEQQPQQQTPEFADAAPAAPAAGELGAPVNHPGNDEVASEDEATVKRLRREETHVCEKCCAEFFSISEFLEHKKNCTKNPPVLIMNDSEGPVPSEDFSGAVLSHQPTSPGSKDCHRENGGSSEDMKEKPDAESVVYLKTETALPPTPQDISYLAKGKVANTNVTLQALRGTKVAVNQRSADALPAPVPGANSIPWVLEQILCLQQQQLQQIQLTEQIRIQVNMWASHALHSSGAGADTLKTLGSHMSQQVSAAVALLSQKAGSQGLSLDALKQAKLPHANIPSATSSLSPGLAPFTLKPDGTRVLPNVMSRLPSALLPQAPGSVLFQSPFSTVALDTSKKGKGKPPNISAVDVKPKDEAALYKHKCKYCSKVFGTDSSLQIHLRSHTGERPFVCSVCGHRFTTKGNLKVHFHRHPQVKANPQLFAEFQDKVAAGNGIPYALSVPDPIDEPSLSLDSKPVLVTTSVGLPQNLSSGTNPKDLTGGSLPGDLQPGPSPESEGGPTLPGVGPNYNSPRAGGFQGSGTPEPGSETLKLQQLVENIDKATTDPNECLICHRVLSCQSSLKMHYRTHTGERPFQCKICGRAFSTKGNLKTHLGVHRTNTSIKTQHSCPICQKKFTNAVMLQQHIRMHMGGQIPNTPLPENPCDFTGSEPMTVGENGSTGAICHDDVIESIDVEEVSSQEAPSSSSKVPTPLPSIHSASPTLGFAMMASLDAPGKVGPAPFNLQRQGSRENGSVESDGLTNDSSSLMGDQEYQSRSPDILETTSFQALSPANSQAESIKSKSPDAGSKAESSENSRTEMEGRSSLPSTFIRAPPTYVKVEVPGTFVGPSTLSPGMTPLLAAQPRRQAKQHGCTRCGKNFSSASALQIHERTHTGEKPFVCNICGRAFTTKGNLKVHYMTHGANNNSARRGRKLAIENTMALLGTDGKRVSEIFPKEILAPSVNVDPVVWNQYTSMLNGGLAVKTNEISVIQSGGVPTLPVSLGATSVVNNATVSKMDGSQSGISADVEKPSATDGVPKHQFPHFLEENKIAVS
Method: universal PBM
Molecule type: double-stranded DNA, one strand shown
Medium: in vitro
Tested at: 600 nM
Setting: 8-mer, flanks averaged, mean of replicates
Direction: higher = stronger binding
Strand	E-score
TGTCGACA	0.0276
GACAGCCC	-0.323
CAAATCTA	0.213
GCGAGTGA	-0.156
GTCGTGAA	-0.128
CCTGGGTA	-0.267
AGAAAGTG	-0.122

Block 3
Target: Phosphate system positive regulatory protein PHO4, full length, GST-tagged (PHO4, Saccharomyces cerevisiae, UniProt P07270, residues 1-312)
Method: competition protein-binding microarray
Molecule type: double-stranded DNA, one strand shown
Medium: in vitro
Tested at: 2 µM
Setting: whole 60-bp probe, lowest competitor level
With: Cbf1 competitor, 0.05 µM
Direction: higher = stronger binding
All sequences stand within: … GTCTTGATTCGCTTGACGCTGCTG
Construct (chain): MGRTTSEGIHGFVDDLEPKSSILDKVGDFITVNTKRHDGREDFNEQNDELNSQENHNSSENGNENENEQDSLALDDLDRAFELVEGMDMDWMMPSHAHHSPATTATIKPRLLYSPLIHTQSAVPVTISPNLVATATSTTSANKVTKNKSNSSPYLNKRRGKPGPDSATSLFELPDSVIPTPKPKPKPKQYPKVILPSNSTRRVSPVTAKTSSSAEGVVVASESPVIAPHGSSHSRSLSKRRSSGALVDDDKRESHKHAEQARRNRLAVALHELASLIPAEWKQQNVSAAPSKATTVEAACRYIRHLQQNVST
Strand	fluorescence intensity [a.u.]
GTCTTGTCTCATTGGATAGTGGGTGTCCCCACTTCA	5220
CGGGGTTAAGTTTGGGAAGTGGGTGGCTTGCAGCAG	4780
GCGATCCTTTTTTAGCACGTGAACGGTAATAACGGG	12600
GATAGGTGATGTTGTCATGCCTGAGTATGTGTATGA	6090
TTGTTGAAAACGAGTCACGTGCTTTACCATTTTGCT	15500

Further values, each from its own experiment
Substance	target	assay	system	setting	scale	endpoint	value
PhoQ, residues 284 288 289 292 302 303 HSYLQF	PhoP, residues 12 14 15 18 19 VHSCL (Escherichia coli, UniProt P23836)	Sort-seq, measured: YFP reporter	E. coli	PhoQ-PhoP variant library, with: 10 µM Mg2+	relative to: high Mg2+ state, higher = stronger signaling	fold induction	8.72

Excerpt of the above (block 2):
Strand	E-score
CCTGGGTA	-0.267
